Measurements of several laboratories.
A part holds a random share of what one study measured. Changes are numbered by the printed parent chain.

Study 1
Target: Interferon regulatory factor 7, full length, phosphomimetic (IRF7, Homo sapiens, UniProt Q92985, residues 1-503, S101K/S471D/S472D/S475D/S476D/S477D/S483D/S484D/S487D)
Technique: protein-binding microarray
Molecule type: double-stranded DNA, one strand shown
Sample: in vitro
Tested at: 250 nM
Setting: 60-bp whole probe
Added: salmon DNA 0.4 mg/ml
Baseline: random background probes
Direction: higher = stronger binding
Constant ends, left off below: GCCTAGCAC … GTCTTGATTCGCTTGACGCTGCTG
Construct (chain): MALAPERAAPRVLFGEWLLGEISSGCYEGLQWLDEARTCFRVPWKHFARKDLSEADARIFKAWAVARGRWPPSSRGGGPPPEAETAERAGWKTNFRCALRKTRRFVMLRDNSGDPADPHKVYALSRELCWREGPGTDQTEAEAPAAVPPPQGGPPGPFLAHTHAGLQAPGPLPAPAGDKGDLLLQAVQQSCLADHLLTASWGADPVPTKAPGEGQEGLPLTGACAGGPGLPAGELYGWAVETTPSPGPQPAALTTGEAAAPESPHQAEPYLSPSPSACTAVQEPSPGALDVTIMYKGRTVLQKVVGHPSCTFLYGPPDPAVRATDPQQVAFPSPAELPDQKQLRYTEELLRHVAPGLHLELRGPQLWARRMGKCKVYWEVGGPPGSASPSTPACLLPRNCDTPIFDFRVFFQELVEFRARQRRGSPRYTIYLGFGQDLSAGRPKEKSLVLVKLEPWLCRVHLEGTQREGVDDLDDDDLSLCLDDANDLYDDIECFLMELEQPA
Strand	log fluorescence [z-score]
TTAGATATCAATATCGATTAGTGCTAG	0.304
TTAGGTATCCTTTTCCCTTAGTGCTAG	1.94
GACGGTTTCGACTTTCGGAACGTGCTA	11.8
TCATTTTTCTAAACCATACTGTGCTAG	1.41
TTAGATCTCAGACTGGGTTAGTGCTAG	0.0575
TTAGGTTTCCTTCTCCTCTAGTGCTAG	2.51
GACGATATCAATTTCGAGACGTGCTAG	0.397
TTAGGTCTCCTTCTCCCTTAGTGCTAG	0.283

Study 2
Target: Phosphate system positive regulatory protein PHO4, full length, GST-tagged (PHO4, Saccharomyces cerevisiae, UniProt P07270, residues 1-312)
Technique: competition protein-binding microarray
Molecule type: double-stranded DNA, one strand shown
Sample: in vitro
Tested at: 2 µM
Setting: whole 60-bp probe, lowest competitor level
Added: Cbf1 competitor, 0.05 µM
Direction: higher = stronger binding
Residues (chain): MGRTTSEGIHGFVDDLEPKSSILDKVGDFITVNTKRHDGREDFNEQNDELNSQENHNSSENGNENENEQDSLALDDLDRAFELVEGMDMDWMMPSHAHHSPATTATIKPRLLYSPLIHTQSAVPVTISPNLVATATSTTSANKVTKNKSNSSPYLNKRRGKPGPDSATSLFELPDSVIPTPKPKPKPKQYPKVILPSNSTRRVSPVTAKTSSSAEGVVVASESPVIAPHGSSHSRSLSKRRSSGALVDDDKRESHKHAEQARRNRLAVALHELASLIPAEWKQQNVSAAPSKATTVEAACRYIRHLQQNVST
Strand	fluorescence intensity [a.u.]
CGGGGTTAAGTTTGAGACGTGGGTGGCTTGCAGCAGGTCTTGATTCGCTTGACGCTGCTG	6620
CTAACGAAGGTTTGCTAAGTGGGTGACAAGCCAAGTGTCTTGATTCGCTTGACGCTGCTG	3420
ATCTTTCCGTGGAGTATCGTGACGGGACTAATGATCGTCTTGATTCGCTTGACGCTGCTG	6470
TGCGCAACAACTTGCGTTGTGGGTGTATGTCTAGAAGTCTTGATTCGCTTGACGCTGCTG	4720
GCTATTGTATTTTATGGCGTGGGTAAAAATTCAATAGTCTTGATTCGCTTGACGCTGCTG	7360
GCTTTCTAAAGCCGTCACGGCAATAGAAAATTGCGCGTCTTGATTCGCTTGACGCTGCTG	2900
TTTTCTTGGTCAAGGTCTGTGATATCCCCTTCCGGTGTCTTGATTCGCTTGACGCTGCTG	2710
CTTTCCCGATCTTGCAATGTGGGTGTAGCACATTTGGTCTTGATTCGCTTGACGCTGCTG	7100

Study 3
Target: RING finger protein unkempt homolog, zinc fingers 1-6, GST-SBP tag (UNK, Homo sapiens, UniProt Q9C0B0, residues 30-357)
Chain of UniProt Q9C0B0 (30-357, looked up): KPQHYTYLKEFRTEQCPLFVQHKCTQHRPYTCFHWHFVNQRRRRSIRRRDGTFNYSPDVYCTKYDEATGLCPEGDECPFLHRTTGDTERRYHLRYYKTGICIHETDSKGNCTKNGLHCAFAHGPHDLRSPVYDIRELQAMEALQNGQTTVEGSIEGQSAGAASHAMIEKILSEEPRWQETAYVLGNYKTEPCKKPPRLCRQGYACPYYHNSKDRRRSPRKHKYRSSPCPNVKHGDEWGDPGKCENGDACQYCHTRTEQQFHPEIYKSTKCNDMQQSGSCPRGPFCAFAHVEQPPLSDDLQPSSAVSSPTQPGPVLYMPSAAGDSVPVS
Technique: RNA Bind-n-Seq
Molecule type: RNA
Sample: in vitro
Tested at: not given
Setting: RNA with constant flanks, ends assumed
Baseline: input RNA pool
Direction: higher = stronger binding
Strand	bound/input enrichment
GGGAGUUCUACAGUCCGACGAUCGAACAAGUAUGCCACAUCGAAGCAUGCUAAGAUCAGCACUCUACCACAGCUGAAUUCUGCACCCGUUCAAGAUUUAGCCAAGGCUGUGGCAAAGGUGUAACUUGUAAACUUGAGUUGGAGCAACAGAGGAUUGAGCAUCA	0.172 ratio
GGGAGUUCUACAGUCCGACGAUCGGGAACCCUGCCUGUUCAGCCCAGGUGCAGCAUGUCUCGCCUUCCAUUUUCCCAGCUCAUUCCGCAAGUGUAUCAGCUCCAUUGUUACCCUCAGUGGAAAGUGUCCUAAGUCCAAAUAUACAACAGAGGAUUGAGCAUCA	0.312 ratio
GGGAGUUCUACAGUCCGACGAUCGUAACCAUCUACCGGGAAGAAGGCAUCGUAGGAUUUUUUGCGGGUCUCAUUCCUCGCCUCCCCGGUGACAUCAUUUCUUUGUGGCUGUGUAACUCACUGGCCUAUCUCAUCAAUACCUAUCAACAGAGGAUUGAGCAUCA	0.571 ratio
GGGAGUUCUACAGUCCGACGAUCGCAGGACGGGGAGGGACUGCGGCGGAGAUACCGGUCCCCGGGCAAAAGCAGGGACCGCGGUUCCGCUUCCAACGCGUGCUCUCUGGGCGGGGUGCGGCGGGGGAUGUGCCUGCCCAGUCCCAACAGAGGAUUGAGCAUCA	0.112 ratio
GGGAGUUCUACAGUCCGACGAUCAGCACCUACUGUGUUCUCAACACCGUGCCACCUAUAGAAGAUGAUCAUGGGAACAGCAACCGCCGUCAUGUAAAAAUCUUUUUACCGAAAAAGCUGCUUGAAUGUCUGCCGAAAUGUUCACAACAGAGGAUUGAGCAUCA	0.0869 ratio
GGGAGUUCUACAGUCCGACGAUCAUUACAUUACAUGAAAUGGCAGAAACAGAUGAAGGAUGGUUGGAUGUUGUCCAGUCUUUAAUCCGAGUUAUUCCAUUGGAAGAUCCAUUGGGACCAGCUGUUAUAACCUUGUUACUAGACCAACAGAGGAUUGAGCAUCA	0.229 ratio
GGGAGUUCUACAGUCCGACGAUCAGAUGGUUCCAGAAAAACGAGCCUCAGCUGGCGAAUGCCUUCGACAUCCUUGGUUGAAUUCUCCGCAGAUUCUACAAAUAUAGCAUUCUGAGCUAGCAAAUUUCUCCCAGUACAUUGGACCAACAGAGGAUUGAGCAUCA	0.557 ratio
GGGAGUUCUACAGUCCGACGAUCAUGGGGUGGGAGGGGGAAAAAGGCCGACAACACUCGACCGCUUGUUUUGUGCCAAAUGCUUUCCGAUAAGGACAUAAUGUUUUUGACUGAUGUAAAUACUAACUCUAGAAUAGGCAGGAUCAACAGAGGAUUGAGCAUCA	0.786 ratio

Further values, each from its own experiment
Parent: PafA, mature enzyme, eGFP fusion (Elizabethkingia meningoseptica, UniProt Q9KJX5); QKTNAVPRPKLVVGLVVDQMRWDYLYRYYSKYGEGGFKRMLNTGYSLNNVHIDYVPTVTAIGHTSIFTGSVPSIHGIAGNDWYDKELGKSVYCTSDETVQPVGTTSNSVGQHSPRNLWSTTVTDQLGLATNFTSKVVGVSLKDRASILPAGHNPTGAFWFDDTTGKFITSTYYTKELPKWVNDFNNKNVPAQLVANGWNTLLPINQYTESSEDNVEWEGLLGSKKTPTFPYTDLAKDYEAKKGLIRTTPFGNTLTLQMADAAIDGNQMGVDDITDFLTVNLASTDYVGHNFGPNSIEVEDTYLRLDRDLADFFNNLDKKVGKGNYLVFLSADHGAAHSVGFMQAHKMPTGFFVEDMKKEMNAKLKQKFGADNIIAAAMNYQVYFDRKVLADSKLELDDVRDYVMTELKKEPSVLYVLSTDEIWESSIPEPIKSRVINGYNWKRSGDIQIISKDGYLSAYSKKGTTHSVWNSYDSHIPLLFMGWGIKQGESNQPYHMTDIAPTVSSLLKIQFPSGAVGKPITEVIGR
Substitution	target	test	test system	conditions	scale	quantity	value
S504G	inorganic phosphate, free oxyanion	microfluidic competitive inhibition	in vitro, cell-free expressed	not given, derived from inhibition constants, unchanged parent 615000 nM	lower = stronger binding	phosphate dissociation constant	519 µM

A few entries again (study 2):
Strand	fluorescence intensity [a.u.]
TTTTCTTGGTCAAGGTCTGTGATATCCCCTTCCGGTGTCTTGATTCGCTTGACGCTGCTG	2710
CGGGGTTAAGTTTGAGACGTGGGTGGCTTGCAGCAGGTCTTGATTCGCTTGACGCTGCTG	6620
CTTTCCCGATCTTGCAATGTGGGTGTAGCACATTTGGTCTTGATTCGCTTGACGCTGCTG	7100
GCTATTGTATTTTATGGCGTGGGTAAAAATTCAATAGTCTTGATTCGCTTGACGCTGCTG	7360
